Experimental data from different studies.
A part holds a random share of what one study measured. Changes are numbered by the printed parent chain.

Sample 1
Target: Prothrombin, mature alpha-thrombin (F2, Homo sapiens, UniProt P00734)
Method: aptamer microarray, sandwich
Molecule type: DNA with 2'F-ANA
Sample: in vitro
Tested at: 200 nM
Setting: whole 15-mer aptamer, many near background
Added: Cy3 exosite-II aptamer, 400 nM
Direction: higher = stronger binding
Oligonucleotide: GGTTGGTGTGGTTGG
For `2'F-ANA at 1 5 7 8 9 12 13 15`, “mean fluorescence intensity” read 79.4 a.u.
`2'F-ANA at 2 5 10 11` — result for “mean fluorescence intensity”: 101 a.u.
`2'F-ANA at 1 2 5 8 10 11 12 13 14`: “mean fluorescence intensity” 45.5 a.u.
Under “mean fluorescence intensity”, `2'F-ANA at 1 3 4 10 13 14` is recorded as 118 a.u.
Under “mean fluorescence intensity”, `2'F-ANA at 1 2 8 10 11 12 13 14 15` is recorded as 46.8 a.u.
For `2'F-ANA at 1 3 4 5 7 9 10 12 13 14 15`, “mean fluorescence intensity” read 45.8 a.u.
Under “mean fluorescence intensity”, `2'F-ANA at 4 6 7 12 13` is recorded as 376 a.u.
For `2'F-ANA at 3 5 6 9 10 11 12`, “mean fluorescence intensity” read 61.3 a.u.
`2'F-ANA at 1 2 4 7 8 9 10 13 14 15`: “mean fluorescence intensity” 50.6 a.u.
For `2'F-ANA at 5 6 8 11 14 15`, “mean fluorescence intensity” read 46.1 a.u.
`2'F-ANA at 1 6 7 10 11 15`: “mean fluorescence intensity” 51.9 a.u.
`2'F-ANA at 5 7 8 9 10 12 13 15` — result for “mean fluorescence intensity”: 50.3 a.u.
`2'F-ANA at 1 7 8 10 15`: “mean fluorescence intensity” 57.1 a.u.
Under “mean fluorescence intensity”, `2'F-ANA at 2 4 6 7 8 9 10 11 14 15` is recorded as 63.7 a.u.
`2'F-ANA at 1 2 3 4 6 7 9 12 13 14` — result for “mean fluorescence intensity”: 57.7 a.u.
For `2'F-ANA at 1 2 5 6 7 10 11 13 14 15`, “mean fluorescence intensity” read 56.4 a.u.
`2'F-ANA at 1 2 5 7 9 11 13`: “mean fluorescence intensity” 50.8 a.u.
`2'F-ANA at 1 5 6 7 9 14` — result for “mean fluorescence intensity”: 49.7 a.u.
For `2'F-ANA at 1 2 3 6 9 12 13`, “mean fluorescence intensity” read 279 a.u.
`2'F-ANA at 1 5 9 12 14`: “mean fluorescence intensity” 43.1 a.u.
`2'F-ANA at 1 3 4 6 11 12 13`: “mean fluorescence intensity” 240 a.u.
`2'F-ANA at 3 4 5 6 8 10 11 13`: “mean fluorescence intensity” 45.8 a.u.
Under “mean fluorescence intensity”, `2'F-ANA at 3 5 6 7 9 10 11 12 13 14 15` is recorded as 74.2 a.u.
`2'F-ANA at 2 4 5 7 13 14` — result for “mean fluorescence intensity”: 42.9 a.u.
`2'F-ANA at 1 2 5 9 10 11 13 14`: “mean fluorescence intensity” 49.1 a.u.

Sample 2
Target: Histone acetyltransferase KAT6A, winged helix 1, GST fusion (KAT6A, Homo sapiens, UniProt Q92794, residues 1-85)
Method: protein binding microarray
Molecule type: double-stranded DNA, one strand shown
Sample: in vitro
Tested at: not given
Setting: 8-mer, flanks averaged, mean of 2 arrays, mostly near background
Relative to: not given
Direction: higher = stronger binding
Residues (chain): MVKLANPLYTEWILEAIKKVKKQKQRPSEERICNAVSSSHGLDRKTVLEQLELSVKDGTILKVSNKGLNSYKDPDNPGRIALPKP
The E-score of `CACGGGAA` is reported as 0.296.
The E-score of `TACGAGAA` is reported as -0.0128.
For `AGGCTACT`, the E-score was -0.235.
`AGTGCCGA` gave an E-score of 0.132.
The E-score of `GCTCATAC` is reported as -0.00349.
`CACGCGGC` has an E-score of 0.377.
For `GGTGTGGA`, the E-score was -0.213.
`AAGGGTCA` has an E-score of -0.0494.
`AACCGGAC` gave an E-score of 0.0577.
For `ATGTAAGA`, the E-score was -0.0861.
The E-score of `CCTAAGAG` is reported as -0.219.
The E-score of `GGTACCAC` is reported as -0.179.
`AGGTTTCA` has an E-score of -0.148.
For `CCCACAAC`, the E-score was 0.0403.
For `ACAATTAA`, the E-score was 0.0498.
The E-score of `ATGGAACA` is reported as -0.289.
With `ATCCCGTA` the E-score was 0.268.
With `ATCTTATG` the E-score was -0.0903.
`CCATCGCC` gave an E-score of 0.122.
`AAACTGCA` has an E-score of -0.201.
The E-score of `CCCAACGA` is reported as -0.128.
`GGCACACA` gave an E-score of -0.152.
`CGGCCAAC` has an E-score of 0.191.
`CTCACCCC` gave an E-score of 0.0188.

Sample 3
Target: Protein C-ets-1 (ETS1, Homo sapiens, UniProt P14921, residues 1-441, full length assumed)
UniProt P14921, sequence (whole entry, looked up): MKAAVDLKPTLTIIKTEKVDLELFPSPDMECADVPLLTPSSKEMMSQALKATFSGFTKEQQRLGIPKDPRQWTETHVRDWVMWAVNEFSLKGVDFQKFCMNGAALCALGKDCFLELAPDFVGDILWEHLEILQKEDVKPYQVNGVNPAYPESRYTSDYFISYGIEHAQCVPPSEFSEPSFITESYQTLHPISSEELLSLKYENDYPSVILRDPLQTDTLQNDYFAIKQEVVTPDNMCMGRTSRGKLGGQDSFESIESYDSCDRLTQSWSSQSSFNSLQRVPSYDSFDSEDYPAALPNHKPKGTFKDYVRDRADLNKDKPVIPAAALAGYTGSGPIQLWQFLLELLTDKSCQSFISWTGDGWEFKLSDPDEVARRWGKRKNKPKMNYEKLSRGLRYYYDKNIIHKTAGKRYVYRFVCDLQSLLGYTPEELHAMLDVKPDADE
Method: protein-binding microarray
Molecule type: double-stranded DNA, one strand shown
Sample: in vitro
Tested at: not given
Setting: k-mer, scored over probes, only values ≥0.25
Direction: higher = stronger binding
With `AGGAACTA` the E-score was 0.285.
For `GCGGAACA`, the E-score was 0.273.
The E-score of `ACACATCC` is reported as 0.411.
With `GATCTTCC` the E-score was 0.296.
`CGGATAGA` gave an E-score of 0.317.
`ACGGAAAG` has an E-score of 0.322.
`CTTCCACA` has an E-score of 0.284.
`CCGACTTC` has an E-score of 0.266.
The E-score of `GAAATTTC` is reported as 0.306.
`CTAGTTCC` has an E-score of 0.33.
`AGGATAGC` has an E-score of 0.256.
For `GCGGAAGA`, the E-score was 0.401.
`ATATTTCC` has an E-score of 0.443.
`CCGGAAAA` gave an E-score of 0.468.
The E-score of `AGACCGGA` is reported as 0.46.
The E-score of `AGAGGAAA` is reported as 0.4.

Sample 4
Target: RNA binding protein fox-1 homolog 2, RRM domain, GST-SBP tag (RBFOX2, Homo sapiens, UniProt O43251-10, residues 100-194)
Method: RNA Bind-n-Seq
Molecule type: RNA
Sample: in vitro
Tested at: 365 nM
Setting: natural RNA segment, single round, ends assumed
Relative to: no-protein control
Direction: higher = stronger binding
Residues (chain): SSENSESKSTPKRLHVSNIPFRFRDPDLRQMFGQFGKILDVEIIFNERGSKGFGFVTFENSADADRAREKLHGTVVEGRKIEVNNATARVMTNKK
`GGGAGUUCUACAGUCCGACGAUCCCUCCAAGGGUAGGUGUCUCAUUUGUUCUGGCCCCUUGGAUUUAAAAAUAAAAUUAAUUUCCUGUUGAUAGUGGGCACCUCGGUUUCUUCCUCACUGCUCUGUUUUCCCCUGGAAUUCUCGGGUGCCAA`: “RBNS enrichment (R)” 2.37.
`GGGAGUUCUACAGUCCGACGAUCAGAAAAGGUUGGAAGCUUUAUACUAAAUGGGCUCCUUCAUGGUGACGCCCCGUCAACCACAAUCAAGAACUGAGGCCUGAGGCUGGUUGUACAAUGCCCACGCCUGCCUGUGGAAUUCUCGGGUGCCAA` — result for “RBNS enrichment (R)”: 0.631.
`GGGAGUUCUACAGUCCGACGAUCAUUUUUUUUCUACAUUGAAAAUAGAAACUGCUUCCUUUCUUCUUUCCAGUCAGCUAUUGGUCUUUCCAGCUGUUAUAAUCUAAAGUAUUCUUAUGAUCUGUGUAAGCUCUUGGAAUUCUCGGGUGCCAA`: “RBNS enrichment (R)” 0.528.
`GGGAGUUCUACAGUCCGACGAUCAAUCUGAUUCAGAAUGCUUUUCUCAGCUGACAUACAGAGCACUAAAUAUUUUAAGGCAAGUCCAUAGGUCUGAAUCUCUUAAGAAUUCUCGGCCUCUGUGGGAUUUAGGGUGGAAUUCUCGGGUGCCAA`: “RBNS enrichment (R)” 0.573.
Under “RBNS enrichment (R)”, `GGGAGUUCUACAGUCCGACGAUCCUUGCCUUUUAGUCCUAUACAAAUGUACCUUUCUAUAAAGGGGUGCAAGCAGCACUUCAGAAGAAACCAGCAUCAAAGCAGCCUUCCCUGACCCCACCUAUCGUCUUCUGUGGAAUUCUCGGGUGCCAA` is recorded as 0.371.
Under “RBNS enrichment (R)”, `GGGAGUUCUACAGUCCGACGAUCUGCUUGCUGUCAUAGUGCAGAGCAGAAACUUGCACACUAUUUAGAGAGCUCCCUUCCCACCUCUCUGCCCAGCCUUGUUACCUCACUUCUGCUCUGGCCAUGGCUGUGAAUGGAAUUCUCGGGUGCCAA` is recorded as 0.52.
`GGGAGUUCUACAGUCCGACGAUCCAGGUGUAGUAGUGAACUUGAACAUUUGAAUGGGAAGGAAGCACUUCGCACAAUGGCAUUUGAACAAGGUGGCAAUCGGUUGGAGUAACAAACUCCCCCUUGCUGCUGCAUGGAAUUCUCGGGUGCCAA`: “RBNS enrichment (R)” 3.45.
For `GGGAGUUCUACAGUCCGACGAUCUGGCUGUGGAGAAGCCCAGGCCCUUAGAAGAAUCACUGUAUUUGCCACCUGUACCUCACGGCUGCUAUGCUUGCGUGUUUCCACUGACGAUGGGGCCUCUUUCUAAAGGCUGGAAUUCUCGGGUGCCAA`, “RBNS enrichment (R)” read 0.342.
For `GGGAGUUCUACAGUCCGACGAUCUACAUGCAAAGCAAUAUCUUGUUCAGGUUAGUACCCGCAAAACGGGACAUAGUAUGUGACAAUCUGCAUCGAUCAUGGACUACUAAAUGCCUUUACAUAGAAGGGCUCUGUGGAAUUCUCGGGUGCCAA`, “RBNS enrichment (R)” read 0.315.
`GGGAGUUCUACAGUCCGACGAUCGUGCUGUUAAGCAUUAGCUGGCUUCCUUGUUCAUUGUUCCAAGAGAUGGGUGUGGAGAGACGGCUUAGUGUAGGAUCCUCUCGAAUGAAGCCUGUGUAAUCCUGUUACAGUGGAAUUCUCGGGUGCCAA` — result for “RBNS enrichment (R)”: 0.75.
For `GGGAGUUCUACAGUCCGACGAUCCUGCCGCCUCAAUGUGGUUGCAAGGCCGCUGUUCACCCACAGGGCUAAGAGCUAGCGCUGCCGCACCCCAGAGUGUGGGAAGGGAGAGCGGGGCAGUCUCGGGUGGCUAGUGGAAUUCUCGGGUGCCAA`, “RBNS enrichment (R)” read 0.475.
`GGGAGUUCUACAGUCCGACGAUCAAAACUGAGAACUAACAUUAAAAAAAUUAAAUUUAGAAUAAGAAUGAUUUCUUUAAUUUGUCCUUUUUUUCUUUGGUCUAAAACAUUAUUAAAUUUUUGUAAAUAUUUUGUGGAAUUCUCGGGUGCCAA` — result for “RBNS enrichment (R)”: 1.95.

Sample 5
Target: JUND, bZIP domain (human)
Method: DHFR protein complementation
Sample: yeast
Setting: single substitutions, most at no-binding floor
Relative to: wild-type JUN-FOS pair
Direction: higher = stronger binding
Starting sequence: JUN, bZIP domain (human); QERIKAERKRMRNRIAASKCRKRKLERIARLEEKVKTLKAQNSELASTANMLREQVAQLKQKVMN; partner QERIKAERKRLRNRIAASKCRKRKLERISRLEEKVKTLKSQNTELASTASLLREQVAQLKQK
`A29Q` has a binding fitness of -0.83 natural log.
With `S47M` the binding fitness was -0.595 natural log.
For `S47W`, the binding fitness was -0.84 natural log.
The binding fitness of `R30S` is reported as -0.521 natural log.
`E33F` gave a binding fitness of -1.08 natural log.
The binding fitness of `I28W` is reported as -1.2 natural log.
`Q41L` gave a binding fitness of -0.735 natural log.
`Q55T` gave a binding fitness of -0.931 natural log.
With `K36A` the binding fitness was -0.537 natural log.
With `T48R` the binding fitness was -1.01 natural log.
`K34T` gave a binding fitness of -0.429 natural log.
`N42W` gave a binding fitness of -1.11 natural log.
`M51R` has a binding fitness of -0.678 natural log.
For `E54Y`, the binding fitness was -1.05 natural log.
The binding fitness of `A46H` is reported as -0.847 natural log.
`A40K` has a binding fitness of -0.445 natural log.
The binding fitness of `A49C` is reported as -0.103 natural log.
With `E44V` the binding fitness was -0.775 natural log.
With `T48C` the binding fitness was -0.954 natural log.
`T37H` has a binding fitness of -0.573 natural log.
The binding fitness of `Q41K` is reported as -0.911 natural log.
`K36C` gave a binding fitness of -0.895 natural log.
`V56M` has a binding fitness of -0.725 natural log.
The binding fitness of `T37M` is reported as -0.19 natural log.
With `I28K` the binding fitness was -1.19 natural log.

Excerpt of the above (sample 1):
For `2'F-ANA at 1 3 4 5 7 9 10 12 13 14 15`, “mean fluorescence intensity” read 45.8 a.u.
`2'F-ANA at 1 5 6 7 9 14` — result for “mean fluorescence intensity”: 49.7 a.u.
`2'F-ANA at 2 5 10 11` — result for “mean fluorescence intensity”: 101 a.u.
Under “mean fluorescence intensity”, `2'F-ANA at 4 6 7 12 13` is recorded as 376 a.u.
Under “mean fluorescence intensity”, `2'F-ANA at 1 2 8 10 11 12 13 14 15` is recorded as 46.8 a.u.
